Published values from different studies.
Each line is one published result; not all experiments were run side by side. Values joined by “and” are separate records of one study, mostly repeats; a detail may differ. ± gives the spread as reported.
Abhd6: Monoacylglycerol lipase ABHD6 (Abhd6, Rattus norvegicus, UniProt Q5XI64)
Sequence of UniProt Q5XI64 (whole entry, looked up): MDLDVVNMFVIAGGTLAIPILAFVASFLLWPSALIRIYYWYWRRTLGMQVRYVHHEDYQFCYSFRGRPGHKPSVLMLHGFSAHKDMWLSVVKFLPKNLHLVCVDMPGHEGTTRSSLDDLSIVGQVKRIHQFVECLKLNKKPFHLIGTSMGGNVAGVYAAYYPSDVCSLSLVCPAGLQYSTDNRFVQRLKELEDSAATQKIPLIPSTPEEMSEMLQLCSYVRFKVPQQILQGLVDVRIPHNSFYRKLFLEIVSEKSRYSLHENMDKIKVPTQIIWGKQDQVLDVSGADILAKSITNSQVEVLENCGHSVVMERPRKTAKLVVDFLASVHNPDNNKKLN
TLK1: Serine/threonine-protein kinase tousled-like 1 (TLK1, Homo sapiens, UniProt Q9UKI8)
Sequence of UniProt A5GZW8 (whole entry, looked up): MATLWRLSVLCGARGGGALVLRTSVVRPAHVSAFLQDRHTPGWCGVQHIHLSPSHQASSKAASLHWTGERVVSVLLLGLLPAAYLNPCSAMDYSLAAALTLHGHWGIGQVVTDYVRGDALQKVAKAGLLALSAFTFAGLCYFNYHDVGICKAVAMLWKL
Sequence of UniProt Q007T0 (whole entry, looked up): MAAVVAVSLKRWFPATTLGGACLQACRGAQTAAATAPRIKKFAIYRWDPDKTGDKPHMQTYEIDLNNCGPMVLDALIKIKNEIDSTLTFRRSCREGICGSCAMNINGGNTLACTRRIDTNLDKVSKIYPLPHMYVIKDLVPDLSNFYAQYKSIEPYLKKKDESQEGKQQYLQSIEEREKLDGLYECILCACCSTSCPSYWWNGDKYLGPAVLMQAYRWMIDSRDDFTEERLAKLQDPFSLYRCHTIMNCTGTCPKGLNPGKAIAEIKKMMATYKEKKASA
Sequence of UniProt D0VWV4 (whole entry, looked up): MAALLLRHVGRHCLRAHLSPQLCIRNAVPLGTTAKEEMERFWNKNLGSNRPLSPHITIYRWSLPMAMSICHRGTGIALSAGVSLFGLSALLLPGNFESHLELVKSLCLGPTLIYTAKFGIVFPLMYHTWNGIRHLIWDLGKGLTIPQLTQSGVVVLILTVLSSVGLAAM
Sequence of UniProt Q9UKI8 (whole entry, looked up): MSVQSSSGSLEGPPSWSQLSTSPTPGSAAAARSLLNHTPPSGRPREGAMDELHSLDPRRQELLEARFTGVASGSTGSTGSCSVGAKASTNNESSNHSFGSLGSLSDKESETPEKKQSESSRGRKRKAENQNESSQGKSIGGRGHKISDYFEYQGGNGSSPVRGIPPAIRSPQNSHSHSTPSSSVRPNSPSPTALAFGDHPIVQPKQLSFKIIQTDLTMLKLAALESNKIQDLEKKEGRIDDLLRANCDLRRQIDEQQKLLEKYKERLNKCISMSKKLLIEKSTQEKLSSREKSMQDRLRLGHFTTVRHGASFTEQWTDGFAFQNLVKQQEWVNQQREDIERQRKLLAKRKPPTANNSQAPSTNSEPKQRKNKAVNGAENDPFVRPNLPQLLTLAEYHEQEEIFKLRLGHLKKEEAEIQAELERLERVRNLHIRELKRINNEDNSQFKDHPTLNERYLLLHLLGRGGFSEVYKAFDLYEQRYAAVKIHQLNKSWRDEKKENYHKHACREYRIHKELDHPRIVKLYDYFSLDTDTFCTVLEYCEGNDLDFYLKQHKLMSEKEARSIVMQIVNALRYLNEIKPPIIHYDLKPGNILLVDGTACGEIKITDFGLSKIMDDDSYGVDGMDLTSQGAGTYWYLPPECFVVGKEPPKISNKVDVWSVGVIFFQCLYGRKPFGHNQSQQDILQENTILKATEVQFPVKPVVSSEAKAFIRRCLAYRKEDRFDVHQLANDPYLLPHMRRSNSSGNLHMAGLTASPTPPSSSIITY
Sequence of UniProt Q8IVT5 (whole entry, looked up): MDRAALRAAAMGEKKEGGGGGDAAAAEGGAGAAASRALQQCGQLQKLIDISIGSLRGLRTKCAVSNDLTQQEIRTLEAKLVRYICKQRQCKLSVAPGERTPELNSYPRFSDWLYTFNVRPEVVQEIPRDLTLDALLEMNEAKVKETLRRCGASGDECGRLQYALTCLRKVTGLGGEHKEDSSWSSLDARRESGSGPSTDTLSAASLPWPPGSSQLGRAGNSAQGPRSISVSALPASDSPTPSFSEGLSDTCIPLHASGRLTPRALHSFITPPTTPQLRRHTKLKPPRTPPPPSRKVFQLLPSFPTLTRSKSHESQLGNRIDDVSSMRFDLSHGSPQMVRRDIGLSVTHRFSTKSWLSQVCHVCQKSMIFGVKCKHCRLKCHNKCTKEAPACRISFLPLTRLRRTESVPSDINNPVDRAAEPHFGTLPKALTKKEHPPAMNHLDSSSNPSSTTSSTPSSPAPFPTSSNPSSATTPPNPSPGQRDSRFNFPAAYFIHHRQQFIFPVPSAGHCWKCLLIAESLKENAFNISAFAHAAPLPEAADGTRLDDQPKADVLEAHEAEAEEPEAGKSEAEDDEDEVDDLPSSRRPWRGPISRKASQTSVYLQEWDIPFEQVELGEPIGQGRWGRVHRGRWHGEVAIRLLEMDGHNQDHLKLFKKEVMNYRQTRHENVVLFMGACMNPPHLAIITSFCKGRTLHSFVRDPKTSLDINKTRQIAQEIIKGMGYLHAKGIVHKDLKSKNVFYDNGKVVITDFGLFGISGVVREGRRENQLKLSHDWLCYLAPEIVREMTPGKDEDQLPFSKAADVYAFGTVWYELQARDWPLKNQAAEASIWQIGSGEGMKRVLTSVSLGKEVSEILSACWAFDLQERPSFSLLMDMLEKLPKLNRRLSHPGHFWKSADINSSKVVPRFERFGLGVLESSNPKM
Sequence of UniProt P24090 (whole entry, looked up): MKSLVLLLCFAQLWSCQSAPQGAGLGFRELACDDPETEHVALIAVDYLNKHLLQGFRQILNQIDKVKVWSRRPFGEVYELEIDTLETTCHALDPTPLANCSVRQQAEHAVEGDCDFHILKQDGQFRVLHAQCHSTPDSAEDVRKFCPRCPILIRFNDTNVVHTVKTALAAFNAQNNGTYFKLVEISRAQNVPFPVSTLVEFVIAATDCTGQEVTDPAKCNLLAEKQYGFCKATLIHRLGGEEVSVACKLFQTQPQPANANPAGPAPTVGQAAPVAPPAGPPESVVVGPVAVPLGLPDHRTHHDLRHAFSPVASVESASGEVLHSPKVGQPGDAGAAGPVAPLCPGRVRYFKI
Sequence of UniProt P12763 (whole entry, unmodified, looked up): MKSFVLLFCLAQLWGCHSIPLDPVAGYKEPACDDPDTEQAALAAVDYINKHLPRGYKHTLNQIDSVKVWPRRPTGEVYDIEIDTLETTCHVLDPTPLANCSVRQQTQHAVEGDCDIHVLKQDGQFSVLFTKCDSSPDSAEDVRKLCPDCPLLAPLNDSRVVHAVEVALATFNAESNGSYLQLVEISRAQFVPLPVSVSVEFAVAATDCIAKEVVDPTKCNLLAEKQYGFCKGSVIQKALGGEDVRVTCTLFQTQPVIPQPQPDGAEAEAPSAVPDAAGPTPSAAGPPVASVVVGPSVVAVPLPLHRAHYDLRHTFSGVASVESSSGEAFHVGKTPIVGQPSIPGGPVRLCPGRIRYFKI
Sequence of UniProt Q13133 (whole entry, looked up): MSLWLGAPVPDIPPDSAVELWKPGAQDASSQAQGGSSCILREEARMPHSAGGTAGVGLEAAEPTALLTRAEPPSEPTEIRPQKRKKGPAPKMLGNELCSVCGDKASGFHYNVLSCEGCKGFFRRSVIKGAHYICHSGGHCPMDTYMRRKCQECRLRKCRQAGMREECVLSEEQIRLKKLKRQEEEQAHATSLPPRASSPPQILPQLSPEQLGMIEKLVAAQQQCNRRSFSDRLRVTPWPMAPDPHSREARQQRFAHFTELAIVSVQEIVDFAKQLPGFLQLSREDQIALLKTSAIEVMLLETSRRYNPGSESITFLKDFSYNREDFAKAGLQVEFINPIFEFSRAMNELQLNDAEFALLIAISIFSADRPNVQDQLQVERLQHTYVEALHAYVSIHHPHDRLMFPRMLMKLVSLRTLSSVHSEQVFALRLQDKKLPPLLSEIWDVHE
Sequence of UniProt Q9NSD7 (whole entry, looked up): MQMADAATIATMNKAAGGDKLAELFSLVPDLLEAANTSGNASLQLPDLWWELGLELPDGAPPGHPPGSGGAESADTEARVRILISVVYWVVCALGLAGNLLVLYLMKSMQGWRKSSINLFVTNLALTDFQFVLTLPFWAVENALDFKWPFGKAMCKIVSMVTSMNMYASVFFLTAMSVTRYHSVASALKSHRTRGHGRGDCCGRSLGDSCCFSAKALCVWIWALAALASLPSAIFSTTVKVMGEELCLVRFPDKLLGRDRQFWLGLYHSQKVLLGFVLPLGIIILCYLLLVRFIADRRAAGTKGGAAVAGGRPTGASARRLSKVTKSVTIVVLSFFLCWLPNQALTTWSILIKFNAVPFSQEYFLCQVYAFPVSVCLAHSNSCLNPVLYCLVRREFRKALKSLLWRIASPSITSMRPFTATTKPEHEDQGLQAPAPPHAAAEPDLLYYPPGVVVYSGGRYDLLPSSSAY
Sequence of UniProt Q2TAA2 (whole entry, looked up): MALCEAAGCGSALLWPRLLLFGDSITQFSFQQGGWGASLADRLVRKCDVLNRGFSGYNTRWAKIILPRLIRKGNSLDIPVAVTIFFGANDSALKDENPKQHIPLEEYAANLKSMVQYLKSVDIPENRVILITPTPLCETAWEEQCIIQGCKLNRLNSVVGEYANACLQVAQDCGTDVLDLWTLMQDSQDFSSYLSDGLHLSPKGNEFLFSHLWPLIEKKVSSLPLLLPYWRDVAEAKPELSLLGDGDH
Sequence of UniProt Q969F8 (whole entry, looked up): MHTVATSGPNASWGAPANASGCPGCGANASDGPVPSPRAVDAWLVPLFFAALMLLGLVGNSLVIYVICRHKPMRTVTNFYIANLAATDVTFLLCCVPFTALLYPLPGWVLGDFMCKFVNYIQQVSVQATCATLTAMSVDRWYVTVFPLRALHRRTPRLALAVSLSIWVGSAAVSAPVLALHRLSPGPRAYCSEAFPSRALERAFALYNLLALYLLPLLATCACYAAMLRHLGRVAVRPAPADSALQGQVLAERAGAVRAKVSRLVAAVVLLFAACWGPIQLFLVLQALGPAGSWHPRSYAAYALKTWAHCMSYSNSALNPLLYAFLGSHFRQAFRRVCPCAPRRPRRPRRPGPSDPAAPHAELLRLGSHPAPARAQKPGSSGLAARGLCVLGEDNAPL

SMILES | target | assay | system | conditions | how to read | measurement | result
CC(C)(C)C(=O)CSc1ncc2c(n1)-c1ccccc1CC2 | Dual specificity protein phosphatase 10, catalytic domain (Homo sapiens, UniProt Q9Y6W6) | X-ray co-crystal structure |  | concentration not given |  | active site volume | 51.4 ± 1.5 Å³
COc1cc(N)c(Cl)cc1C(=O)NC1CN2CCC1CC2 (stereo not drawn) | G-protein coupled receptor 12 (GPR12, Homo sapiens, UniProt P47775) | β-arrestin recruitment, TANGO luminescence, measured: GPR12 |  | concentration not given | reference: basal luminescence | log2 fold change | 0.035
CC1(C)S[C@@H]2[C@H](NC(=O)Cc3ccccc3)C(=O)N2[C@H]1C(=O)O | Penicillin-binding protein 2X (Streptococcus pneumoniae R6, UniProt P59676) | inhibitor | Streptococcus pneumoniae |  |  | kinact/KI | 200000 ± 7400 M⁻¹ s⁻¹
O=C(c1ccc(Cl)cc1)N1CCN2C(=O)N(OC(=O)N3CCOc4ccccc43)C(=O)C2C1 (stereo not drawn) | Isoamyl acetate-hydrolyzing esterase 1 homolog (IAH1, Homo sapiens, UniProt Q2TAA2) | MS-based ABPP | SW-620 conditioned medium | 10 µM, 1 h, 37 °C | reference: compound over DMSO, lower = more inhibition | mean protein ratio | 0.83
Cc1ccc([C@H]2C[C@@H]2COc2cc(NCc3nnc(C)s3)nc(C)n2)nc1 | PDE5A (Homo sapiens, UniProt O76074) | enzyme activity, inhibitor, IMAP fluorescence polarization |  | isoform PDE5A1 | reference: Ki target over Ki PDE10A2 | selectivity ratio | 1.61e+06 fold
COc1ccc(N2C(=O)N(c3c(C)cccc3Cl)Cc3cnc(Nc4ccc(C5CCN(C)CC5)cc4OC)nc32)nc1 | ALK (Homo sapiens, UniProt Q9UM73) | kinase activity |  | 0.5 µM |  | inhibition | 32%
CN(C(=O)n1cnc(-c2ccc[n+]([O-])c2)c1)C1CCCCC1 | Abhd6 | enzyme activity, ABPP | rat, brain | oral, 10 mg/kg/day, 28 days | reference: vehicle | fold change | -5.9
COc1cc(Nc2ncc(F)c(Nc3ccc4c(n3)NC(=O)C(C)(C)O4)n2)cc(OC)c1OC | TLK1 | KINOMEscan |  | 10 µM |  | inhibition | 81%
O=C(Nc1cnccc1Cl)N1CCN(Cc2ccc3c(c2)OC(F)(F)O3)CC1 | Alpha-2-HS-glycoprotein (Ahsg, Rattus norvegicus, UniProt P24090) | competitive ABPP with azido-FP probe | rat brain soluble fraction | 10 µM, unit not given | reference: DMSO | probe labelling | -2.2
COc1cc(O)cc(/C=C/c2ccc(O)cc2)c1 | O-methyltransferase (Sorghum bicolor, UniProt A0A1B6PFV1) |  |  | concentration not given, added: SAH+ |  | ΔH of binding | -10.5 ± 0.212 kcal/mol
C=C(CN(C(=O)c1c(C(F)F)nn(C)c1F)C1CC1)c1ccc(Cl)cc1Cl | SDHD/SDHC/SDHB (Sus scrofa, UniProt A5GZW8+D0VWV4+Q007T0) | enzyme activity, inhibitor, DCIP reduction | pig | 0.1 µM, added: DCIP 10 µM |  | reaction velocity | 0.00368 µM/s and 0.00369 µM/s and 0.00361 µM/s
CCN1CCN(C(=O)N[C@@H](C(=O)N[C@@H]2C(=O)N3[C@@H]2SC(C)(C)[C@@H]3C(=O)O)c2ccccc2)C(=O)C1=O | Penicillin-binding protein 2a (pbp2a, Streptococcus pneumoniae, UniProt Q8DNB6) | inhibitor |  |  |  | kinact/KI | 880 ± 75 M⁻¹ s⁻¹
CC(C)C[C@@H]1NC(=O)[C@H](C(C)C)NC(=O)CNC(=O)[C@H](CC(N)=O)NC(=O)[C@@H]2CCCN2C(=O)[C@H](Cc2ccc(O)cc2)NC(=O)[C@H](CCCNC(=N)N)NC(=O)[C@H](Cc2ccccc2)NC(=O)[C@@H](NC(=O)[C@H](CCCCN)NC(=O)[C@@H]2CCCN2C(=O)[C@H](CO)NC(=O)[C@H](C)NC(=O)[C@@H](N)Cc2ccc(O)cc2)CSSC[C@@H](C(=O)N[C@H](C(N)=O)[C@@H](C)O)NC(=O)[C@H](C)NC1=O | Alpha-2-HS-glycoprotein, asialo (AHSG, Bos taurus, UniProt P12763) | binding, isothermal titration calorimetry |  | pH 7.0, 25 °C, added: asialofetuin |  | -TΔS | -1.64 kcal/mol
O=C(Nc1cccnn1)N1CCC(=Cc2cccc(Oc3ccc(C(F)(F)F)cn3)c2)CC1 | Abhd6 | probe labelling, inhibitor, competitive ABPP with azido-FP probe, measured: ABHD6 | rat brain membrane fraction | 0.01 µM |  | inhibition | 1.7%
Nc1nc2c(ncn2[C@@H]2O[C@H](COP(=O)(O)OP(=O)(O)OP(=O)(O)O)[C@@H](O)[C@H]2O)c(=O)[nH]1 | GTP 3',8-cyclase (moaA, Staphylococcus aureus, UniProt P69848, R266K) | isothermal titration calorimetry |  | concentration not given, 25 °C, R266K mutant, anaerobic |  | binding enthalpy | -3.65 ± 0.29 kcal/mol
O=C(O)COP(=O)(O)O | TPI1 (Saccharomyces cerevisiae, UniProt P00942, S211A) | enzyme activity, competitive inhibitor, GPDH/NADH-coupled |  | pH 8.3, 25 °C, ionic strength 0.1 NaCl, added: glyceraldehyde 3-phosphate substrate | reference: mutant over wild type | Ki ratio | 50
CC[C@H](C)[C@@H]1NC(=O)[C@H](Cc2c[nH]c3ccccc23)NC(=O)[C@H](Cc2ccc(O)cc2)NC(=O)CSC[C@@H](C(N)=O)NC(=O)[C@H]([C@@H](C)O)NC(=O)[C@H](CO)NC(=O)[C@H](C(C)C)NC(=O)[C@H](Cc2ccc(O)cc2)NC(=O)[C@H](CCCNC(=N)N)NC(=O)[C@H](Cc2ccc(O)cc2)NC(=O)[C@H]([C@@H](C)O)NC(=O)[C@H]([C@@H](C)O)NC(=O)[C@H](Cc2c[nH]c3ccccc23)NC(=O)[C@H](CO)NC(=O)[C@H](CC(N)=O)NC(=O)[C@H](CO)NC1=O | Vacuolar protein sorting-associated protein 26A/Vacuolar protein sorting-associated protein 35, Vps35 residues 1–390 (Homo sapiens, UniProt O75436+Q96QK1) | ITC |  | 25 °C |  | -TΔS | -2.5 ± 1.2 kcal/mol
CO/N=C1\C[C@]2(C[C@@H]3C[C@@H](C/C=C(\C)C[C@@H](C)/C=C/C=C4\CO[C@@H]5[C@H](O)C(C)=C[C@@H](C(=O)O3)[C@]45O)O2)O[C@H](/C(C)=C/C(C)C)[C@H]1C | NR1H3 (Homo sapiens, UniProt Q13133) | coactivator recruitment |  | 0.4 µM |  | efficacy | 11.1 ± 5.3%
CCCCCCCCCC(=O)CC(=O)N[C@H]1CCOC1=O | qscR (Pseudomonas aeruginosa, UniProt G3XD77) | ligand binding, FRET displacement | intact cells | apparent affinity |  | K0.5 | 17 nM
CN1CCN(c2cc(-c3ccncc3)c(-c3ccc4ccccc4c3)nn2)CC1 | KiSS-1 receptor (KISS1R, Homo sapiens, UniProt Q969F8) | agonist, FLIPR |  | 12.5 µM |  | activation | 6.1%
Nc1ncnc2c1ncn2[C@@H]1O[C@H](COP(=O)(O)OP(=O)(O)O)[C@@H](O)[C@H]1O | Cell cycle histidine kinase CckA, cytoplasmic region (Caulobacter vibrioides, UniProt Q9X688) | binding, ITC |  | added: without c-di-GMP |  | ΔH | -1560 ± 102 cal/mol
O=C(O)Cc1c[nH]cn1 | SLC6A6 (Homo sapiens, UniProt P31641, Y138A) | binding, microscale thermophoresis |  | 40.3 nM, fitted curve | higher = more binding | fraction bound | 0.000233
CCc1cc(O)cc2c(/C=N/NC(=N)NCCc3ccc(Cl)cc3)c[nH]c12 | RXFP3 (Homo sapiens, UniProt Q9NSD7) |  |  |  |  | Emax | 104 ± 13%
[2H]c1c([2H])c([C@]2([2H])CCCN2C(=O)C(C)(C)Oc2ccc3cn[nH]c3c2)c([2H])c([2H])c1C([2H])([2H])[2H] | TLK1 | KINOMEscan |  | 1 µM | reference: DMSO control | remaining binding | 67%
CC(C)NC[C@@H](O)COc1cccc2ccccc12 | OCT1 human | binding, frontal displacement chromatography |  | unit not given | reference: higher Ki over lower Ki | enantioselectivity | 3
C[C@H]1CN(c2n[nH]c3nc(N[C@H]4CC[C@H](NS(=O)(=O)CCC(F)(F)F)CC4)ncc23)CCO1 | KSR1 (Homo sapiens, UniProt Q8IVT5) | inhibitor, Kinobeads competition profiling |  | 0.8 µM | reference: vehicle | relative abundance | 1.3
O=C(Nc1nncs1)C(F)(F)Br | MAPK8 (Homo sapiens, UniProt P45983) | binding, isothermal titration calorimetry |  |  |  | ligand efficiency | 0.43

For quick reference, copied from above:
SMILES | target | assay | system | conditions | how to read | measurement | result
O=C(Nc1cccnn1)N1CCC(=Cc2cccc(Oc3ccc(C(F)(F)F)cn3)c2)CC1 | Abhd6 | probe labelling, inhibitor, competitive ABPP with azido-FP probe, measured: ABHD6 | rat brain membrane fraction | 0.01 µM |  | inhibition | 1.7%
Nc1nc2c(ncn2[C@@H]2O[C@H](COP(=O)(O)OP(=O)(O)OP(=O)(O)O)[C@@H](O)[C@H]2O)c(=O)[nH]1 | GTP 3',8-cyclase (moaA, Staphylococcus aureus, UniProt P69848, R266K) | isothermal titration calorimetry |  | concentration not given, 25 °C, R266K mutant, anaerobic |  | binding enthalpy | -3.65 ± 0.29 kcal/mol
O=C(O)COP(=O)(O)O | TPI1 (Saccharomyces cerevisiae, UniProt P00942, S211A) | enzyme activity, competitive inhibitor, GPDH/NADH-coupled |  | pH 8.3, 25 °C, ionic strength 0.1 NaCl, added: glyceraldehyde 3-phosphate substrate | reference: mutant over wild type | Ki ratio | 50
